# Measured values of several laboratories.
# Compare with care: the assays were run in different laboratories. ± marks the error that the study gave.
Structure (SMILES),test,test system,setting,tissue uptake
CC[C@H](C)[C@H](NC(=O)[C@H](CCCNC(=N)N)NC(=O)[C@H](CCCCN)NC(=O)[C@H](Cc1ccc(O)cc1)NC(=O)[C@H](CC(=O)O)NC(=O)[C@H](C)NC(=O)CNC(=O)CCOCCOCCOCCNC(=O)CN1CCN(CC(=O)O)CCN(CC(=O)O)CCN(CC(=O)O)CC1)C(=O)N[C@H](C(=O)N[C@@H](CC(C)C)C(=O)N[C@@H](CCCCN)C(=O)N[C@H](C(=O)N[C@@H](CC(N)=O)C(N)=O)C(C)C)[C@@H](C)O [copper-64 labelled],ex vivo gamma counting,"C57BL/6J male mice, B16-F10 tumour, heart","intravenous, 1.85 MBq, 40 min",0.529 ± 0.088 %ID/g
CSCC[C@H](NC(=O)CNC(=O)[C@H](CCCCN)NC(=O)[C@H](CC(C)C)NC(=O)[C@@H]1CCCN1C(=O)[C@H](CO)NC(=O)[C@H](Cc1c[nH]cn1)NC(=O)[C@H](Cc1c[nH]c2ccccc12)NC(=O)[C@H](CCCNC(=N)N)NC(=O)[C@H](CC(C)C)NC(=O)[C@H](CCCNC(=N)N)NC(=O)[C@H](Cc1c[nH]c2ccccc12)NC(=O)[C@H](CS)NC(=O)CCCCCNC(=O)CN1CCN(CC(=O)O)CCN(CC(=O)O)CCN(CC(=O)O)CC1)C(=O)O [copper-64 labelled],ex vivo biodistribution,"BALB/c nude mice, ovaries","intravenous, dose not given, 6 h, Huh-7 tumour-bearing",2.1 %ID/g
CC[C@H](C)[C@H](NC(=O)[C@H](CCCCN)NC(=O)CNC(=O)[C@H](CC(C)C)NC(=O)[C@H](Cc1ccccc1)NC(=O)[C@H](CCCCN)NC(=O)[C@H](CO)NC(=O)[C@H](Cc1ccccc1)NC(=O)[C@H](Cc1c[nH]c2ccccc12)NC(=O)[C@H](CCC(N)=O)NC(=O)[C@@H](NC(=O)[C@H](Cc1ccccc1)NC(=O)CCCCCNC(=O)CN1CCN(CC(=O)O)CCN(CC(=O)O)CCN(CC(=O)O)CC1)C(C)C)C(=O)N[C@@H](CCC(=O)O)C(=O)N1CCC[C@H]1C(=O)N[C@@H](CC(=O)O)C(=O)N[C@H](C(=O)N[C@@H](CO)C(=O)N[C@@H](CCC(N)=O)C(=O)N[C@H](C(=O)N[C@@H](CCC(N)=O)C(=O)N[C@@H](CC(=O)O)C(=O)N1CCC[C@H]1C(=O)N[C@@H](CC(N)=O)C(=O)N[C@@H](CC(=O)O)C(=O)N[C@@H](CCC(N)=O)C(=O)N[C@@H](Cc1ccc(O)cc1)C(=O)N[C@@H](CCC(=O)O)C(=O)N1CCC[C@H]1C(=O)N[C@@H](Cc1ccccc1)C(=O)O)C(C)C)C(C)C [copper-64 labelled],,"C57BL/6 mice, liver",together with: LPS 3 mg/kg intratracheal,15.3 ± 1 %ID/g
CC[C@H](C)[C@H](NC(=O)[C@@H](Cc1c[nH]c2ccccc12)NC(=O)[C@@H]1CCCN1C(=O)[C@H](CCCCN)NC(=O)[C@H](CCCCN)NC(=O)CCNC(=O)CCNC(=O)CN1CCN(CC(=O)O)CCN(CC(=O)O)CCN(CC(=O)O)CC1)C(=O)N[C@@H](C[Si](C)(C)C)C(=O)O [gallium-68 labelled],ex vivo biodistribution,"nude mice, HT-29 xenograft, lungs","90 min, together with: levocabastine 0.5 µmol",0.63 ± 0.13 %ID/g
C[C@H](O)[C@@H](NC(=O)[C@H]1CCCN1C(=O)[C@@H](CCCCN)NC(=O)[C@@H](CO)NC(=O)[C@@H](Cc1ccc(O)cc1)NC(=O)[C@@H](CC(N)=O)NC(=O)CCOCCOCCOCCNC(=O)CN1CCN(CC(=O)O)CCN(CC(=O)O)CCN(CC(=O)O)CC1)C(=O)N[C@H](CC(=O)O)C(=O)N[C@H](CCCNC(=N)N)C(=O)N[C@H](CCC(N)=O)C(=O)N[C@H](Cc1ccc(O)cc1)C(=O)N[C@H](Cc1c[nH]cn1)C(=O)N[C@H](Cc1ccccc1)C(N)=O [copper-64 labelled],,"C57BL/6J mice, heart","intravenous, 1.85 MBq, 0.6667 h, radiolabelled",0.56 ± 0.14 %ID/g
CC[C@H](C)[C@H](NC(=O)[C@H](CCCNC(=N)N)NC(=O)[C@H](CCCCN)NC(=O)[C@H](Cc1ccc(O)cc1)NC(=O)[C@H](CC(=O)O)NC(=O)[C@H](C)NC(=O)CNC(=O)CCOCCOCCOCCNC(=O)CN1CCN(CC(=O)O)CCN(CC(=O)O)CCN(CC(=O)O)CC1)C(=O)N[C@H](C(=O)N[C@H](C(=O)N[C@@H](CCCCN)C(=O)N[C@H](C(=O)N[C@@H](CC(N)=O)C(N)=O)C(C)C)C(C)C)[C@@H](C)O [copper-64 labelled],ex vivo gamma counting,"C57BL/6J male mice, B16-F10 tumour, stomach","intravenous, 1.85 MBq, 40 min",2.12 ± 0.121 %ID/g
CCCC[C@H]1C(=O)N(C)[C@@H](CCCC)C(=O)N[C@@H](CCCNC(=O)CN2CCN(CC(=O)O)CCN(CC(=O)O)CCN(CC(=O)O)CC2)C(=O)N[C@H](C(=O)NCC(N)=O)CSCC(=O)N[C@@H](Cc2ccc(O)cc2)C(=O)N(C)[C@@H](C)C(=O)N[C@@H](CC(N)=O)C(=O)N2CCC[C@H]2C(=O)N[C@@H](Cc2c[nH]cn2)C(=O)N[C@@H](CC(C)C)C(=O)N(C)CC(=O)N[C@@H](Cc2c[nH]c3ccccc23)C(=O)N[C@@H](CO)C(=O)N[C@@H](Cc2c[nH]c3ccccc23)C(=O)N1C [gallium-68 labelled],,"NOD/SCID mice with CHO-hPD-L1 xenograft, spleen",60 min post injection,6.28 ± 1.91 %ID/g
CC(C)C[C@@H](NC(=O)[C@@H](CCCNC(=N)N)NC(=O)[C@@H](Cc1c[nH]cn1)NC(=O)[C@@H](Cc1c[nH]c2ccccc12)NC(=O)[C@@H](Cc1c[nH]cn1)NC(=O)[C@@H](Cc1ccccc1)NC(=O)[C@H](NC(=O)[C@@H](Cc1ccc(O)cc1)NC(=O)CNC(=O)CNC(=O)CCOCCOCCOCCNC(=O)CN1CCN(CC(=O)O)CCN(CC(=O)O)CC1)[C@H](C)O)C(=O)N[C@H](CC(N)=O)C(=O)N1CCC[C@@H]1C(=O)O [gallium-68 labelled],gamma counting,"C57BL/6 mice, male, muscle","intravenous, 1.85 MBq, 60 min",0.45 ± 0.06 %ID/g

# Excerpt of the above:
Structure (SMILES),test,test system,setting,tissue uptake
CCCC[C@H]1C(=O)N(C)[C@@H](CCCC)C(=O)N[C@@H](CCCNC(=O)CN2CCN(CC(=O)O)CCN(CC(=O)O)CCN(CC(=O)O)CC2)C(=O)N[C@H](C(=O)NCC(N)=O)CSCC(=O)N[C@@H](Cc2ccc(O)cc2)C(=O)N(C)[C@@H](C)C(=O)N[C@@H](CC(N)=O)C(=O)N2CCC[C@H]2C(=O)N[C@@H](Cc2c[nH]cn2)C(=O)N[C@@H](CC(C)C)C(=O)N(C)CC(=O)N[C@@H](Cc2c[nH]c3ccccc23)C(=O)N[C@@H](CO)C(=O)N[C@@H](Cc2c[nH]c3ccccc23)C(=O)N1C [gallium-68 labelled],,"NOD/SCID mice with CHO-hPD-L1 xenograft, spleen",60 min post injection,6.28 ± 1.91 %ID/g
